Assay results pooled from the literature.

The AUC(0-t) of `CCC(=O)N1CCC=C(c2cc3c(Nc4cc5ncsc5cc4F)ncnc3s2)C1` is reported as 13100 ng·h/mL (mouse, plasma; intravenous, 10 mg/kg).
`COC(=O)C1=CNC=C(C(=O)OC)C1c1ccc(F)c(C(F)(F)F)c1` gave an AUC(0-t) of 16400 ng·h/mL (male C57BL/6 mouse, plasma; oral, 50 mg/kg).
The AUC(0-t) of `CC(=O)c1c(C)c2cnc(Nc3ccc(N4CCNCC4)cn3)nc2n(C2CCCC2)c1=O` is reported as 381000 ng·h/mL (mouse, serum; intraperitoneal, 25 mg/kg, single dose).
With `O=C(C1CC1)N1CCC=C(c2cc3c(Nc4cc5ncsc5cc4F)ncnc3s2)C1` the AUC(0-t) was 8340 ng·h/mL (mouse, plasma; oral, 10 mg/kg).
With `COc1cnc2cccc(N3CCc4c(cc(Cn5ccnc5)cc4-c4cn(C)nc4C(F)(F)F)C3=O)c2c1` the AUC(0-t) was 2010 ng·h/mL (male CD-1 mouse, plasma; intravenous, 3 mg/kg).
With `CC(C)NC(=O)NC1CC=C(c2cc3c(Nc4cc5ncsc5cc4F)ncnc3s2)CC1` (racemic) the AUC(0-t) was 16800 ng·h/mL (mouse, plasma; intravenous, 10 mg/kg).
For `COc1ccc2nc(NC(c3ccc(O)cc3)P(=O)(OC)OC)sc2c1` (stereo not shown), the AUC(0-t) was 2860 ng·h/mL (mouse, plasma; intravenous, 10 mg/kg).
`O=C(NCCCCc1ccccc1)n1c(=O)oc2cc(-c3ccc(F)cc3)ccc21` gave an AUC(0-t) of 5170 ng·h/mL (CD-1 mouse, plasma; intraperitoneal, 10 mg/kg).
`Cn1c2cc([S+](C)[O-])sc2c2cnn(Cc3cccc(N)c3)c(=O)c21` (stereo not shown) gave an AUC(0-t) of 131000 ng·h/mL (male BALB/c mouse, plasma; intraperitoneal, 50 mg/kg, single dose).
`C[C@@H](Nc1nc2c(cnn2C(C)(C)C)c(=O)n1Cc1cccc(F)c1)c1ccc(Cl)cc1` gave an AUC(0-t) of 1290 ng·h/mL (C57BL/6 mouse, plasma; intravenous, 2.5 mg/kg).
With `Cc1cc(NC(=O)[C@H](O)c2cc(F)cc(F)c2)ccc1-c1cnc(N)c(C(=O)NC(C)C)c1` the AUC(0-t) was 39400 ng·h/mL (female nude mouse, plasma; oral, 50 mg/kg, single dose).
`COC1C=COC2(C)Oc3c(C)c(O)c4c(c3C2=O)C2=NC3(CCN(CC(C)C)CC3)NC2=C(NC(=O)C(C)=CC=CC(C)C(O)C(C)C(O)C(C)C(OC(=O)c2cncnc2)C1C)C4=O` (stereo not shown) has an AUC(0-t) of 33900 ng·h/mL (female CD-1 mouse, plasma; oral, 10 mg/kg).
`Cc1ncsc1-c1ccc(CNC(=O)[C@@H]2C[C@@H](O)CN2C(=O)[C@@H](NC(=O)COCC(C)(COCCOCCOCCNC(=O)C[C@@H]2N=C(c3ccc(Cl)cc3)c3c(sc(C)c3C)-n3c(C)nnc32)COCCOCCOCCNC(=O)C[C@@H]2N=C(c3ccc(Cl)cc3)c3c(sc(C)c3C)-n3c(C)nnc32)C(C)(C)C)cc1` has an AUC(0-t) of 26300 ng·h/mL (male C57BL/6 mouse, plasma; intravenous, 5 mg/kg, single dose).
With `O=C(O)c1ccc(/C=C2\SC(=S)N(Cc3cccc(C(F)(F)F)c3)C2=O)cc1` the AUC(0-t) was 8180 ng·h/mL (C57BL/6 mouse, blood; oral, 10 mg/kg).
`CCn1cc(-c2cc(Cn3ccnc3)cc3c2CCN([C@H](c2cc(OC)ccn2)C2CC2)C3=O)c(C(F)(F)F)n1` has an AUC(0-t) of 2560 ng·h/mL (male CD-1 mouse, plasma; intravenous, 3 mg/kg).
The AUC(0-t) of `CC(=O)N1CCC=C(c2cc3c(Nc4cc5ncsc5cc4F)ncnc3s2)C1` is reported as 12500 ng·h/mL (mouse, plasma; oral, 10 mg/kg).
With `N#CCCC1CCN(C(=S)c2ccc(-c3cc(Cl)ccc3Cl)o2)CC1` the AUC(0-t) was 1240 ng·h/mL (male BALB/c mouse, plasma; intravenous, 5 mg/kg).
With `Cc1cc(NCC(=O)C(C)(C)C)c2nc(N3CCOC[C@H]3C)cc(=O)n2c1` the AUC(0-t) was 2320 ng·h/mL (C57BL/6 mouse, plasma; intraperitoneal, 10 mg/kg, single dose).
`CC(=O)N1c2ccc(-c3ccc(CNC(=O)c4cn5cc(-c6cnc(N)nc6)nc(N6CCOCC6)c5n4)cc3)cc2CC[C@@H]1C` has an AUC(0-t) of 165 µM·h (female C57BL/6 mouse, plasma; intraperitoneal, 45 mg/kg, single dose).
`C[C@@]1(c2nc(-c3ccc(F)c4cn[nH]c34)no2)CCCN(C(=O)c2ccc(F)nc2)C1` gave an AUC(0-t) of 11500 ng·h/mL (male C57BL/6 mouse, plasma; intraperitoneal, 20 mg/kg).
`Cc1cc(NCCOC(C)C)c2nc(N3CCOC[C@H]3C)cc(=O)n2c1` has an AUC(0-t) of 16500 ng·h/mL (C57BL/6 mouse, plasma; intraperitoneal, 10 mg/kg, single dose).
`COC1C=COC2(C)Oc3c(C)c(O)c4c(c3C2=O)C2=NC3(CCN(CC(C)C)CC3)NC2=C(NC(=O)C(C)=CC=CC(C)C(O)C(C)C(O)C(C)C(OC(=O)Nc2cscn2)C1C)C4=O` (stereo not shown) has an AUC(0-t) of 35700 ng·h/mL (female CD-1 mouse, plasma; oral, 10 mg/kg).
The AUC(0-t) of `CC[C@H](C)[C@@H]1NC(=O)[C@@](C)(NC(=O)[C@H](CCCNC(=N)N)NC(=O)[C@H](CC(C)C)NC(=O)[C@]2(C)CCCC=CCCC[C@](C)(NC(C)=O)C(=O)N[C@@H](CC(C)C)C(=O)N[C@@H](CCC(N)=O)C(=O)N2)CCCC=CCCC[C@@](C)(C(=O)N[C@@H](CC(C)C)C(=O)N[C@@H](Cc2ccc3ccccc3c2)C(=O)NCCC(=O)NCCC(N)=O)NC(=O)[C@H](CCCNC(=N)N)NC(=O)[C@H](CCC(N)=O)NC1=O` is reported as 996000 ng·h/mL (male BALB/c mouse, plasma; intravenous, 30 mg/kg).
`O=C(OC(C(F)(F)F)C(F)(F)F)N1CCC(CNS(=O)(=O)c2ccc(Cl)cc2)CC1` has an AUC(0-t) of 11200 ng·h/mL (male SCID mouse, brain; oral, 10 mg/kg, single dose).
With `CCC(=O)NC1CC=C(c2cc3c(Nc4cc5ncsc5cc4F)ncnc3s2)CC1` (racemic) the AUC(0-t) was 23400 ng·h/mL (mouse, plasma; intravenous, 10 mg/kg).
`COC1C=COC2(C)Oc3c(C)c(O)c4c(c3C2=O)C2=NC3(CCN(CC(C)C)CC3)NC2=C(NC(=O)C(C)=CC=CC(C)C(O)C(C)C(O)C(C)C(OC(=O)Nc2cccnn2)C1C)C4=O` (stereo not shown) has an AUC(0-t) of 32700 ng·h/mL (female CD-1 mouse, plasma; oral, 10 mg/kg).
For `OCCn1nc(-c2ccccc2)c2c(Cl)c(-c3ccccc3)nnc21`, the AUC(0-t) was 0.57 µM·h (mouse, plasma; intraperitoneal, 10 mg/kg).
`COc1ccccc1/C=C/CNCC(O)COc1ccc(Nc2ccccc2)cc1` (racemic) gave an AUC(0-t) of 50.4 ng·h/mL (mouse, plasma; oral, 10 mg/kg).
